Assay results of several laboratories.
Compare with care: the assays were run in different laboratories. ± gives the spread as reported.
MAPKAPK2: MAP kinase-activated protein kinase 2 (MAPKAPK2, Homo sapiens, UniProt P49137)
Sequence of UniProt P49137 (whole entry, looked up): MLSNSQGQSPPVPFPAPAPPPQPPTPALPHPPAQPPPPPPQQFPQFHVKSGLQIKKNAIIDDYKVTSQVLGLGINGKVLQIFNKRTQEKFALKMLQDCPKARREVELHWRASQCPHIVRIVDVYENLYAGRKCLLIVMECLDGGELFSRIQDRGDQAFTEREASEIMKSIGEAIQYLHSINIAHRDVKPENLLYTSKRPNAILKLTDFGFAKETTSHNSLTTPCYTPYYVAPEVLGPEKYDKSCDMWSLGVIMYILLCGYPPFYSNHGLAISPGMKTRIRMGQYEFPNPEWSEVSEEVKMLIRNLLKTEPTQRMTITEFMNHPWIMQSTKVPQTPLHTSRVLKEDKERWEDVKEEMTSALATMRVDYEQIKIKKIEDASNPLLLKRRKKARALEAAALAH
Gria2/Glutamate receptor 3: Gria2/Glutamate receptor 3 (Rattus norvegicus, UniProt P19491+P19492)
Sequence of UniProt P19491 (whole entry, looked up): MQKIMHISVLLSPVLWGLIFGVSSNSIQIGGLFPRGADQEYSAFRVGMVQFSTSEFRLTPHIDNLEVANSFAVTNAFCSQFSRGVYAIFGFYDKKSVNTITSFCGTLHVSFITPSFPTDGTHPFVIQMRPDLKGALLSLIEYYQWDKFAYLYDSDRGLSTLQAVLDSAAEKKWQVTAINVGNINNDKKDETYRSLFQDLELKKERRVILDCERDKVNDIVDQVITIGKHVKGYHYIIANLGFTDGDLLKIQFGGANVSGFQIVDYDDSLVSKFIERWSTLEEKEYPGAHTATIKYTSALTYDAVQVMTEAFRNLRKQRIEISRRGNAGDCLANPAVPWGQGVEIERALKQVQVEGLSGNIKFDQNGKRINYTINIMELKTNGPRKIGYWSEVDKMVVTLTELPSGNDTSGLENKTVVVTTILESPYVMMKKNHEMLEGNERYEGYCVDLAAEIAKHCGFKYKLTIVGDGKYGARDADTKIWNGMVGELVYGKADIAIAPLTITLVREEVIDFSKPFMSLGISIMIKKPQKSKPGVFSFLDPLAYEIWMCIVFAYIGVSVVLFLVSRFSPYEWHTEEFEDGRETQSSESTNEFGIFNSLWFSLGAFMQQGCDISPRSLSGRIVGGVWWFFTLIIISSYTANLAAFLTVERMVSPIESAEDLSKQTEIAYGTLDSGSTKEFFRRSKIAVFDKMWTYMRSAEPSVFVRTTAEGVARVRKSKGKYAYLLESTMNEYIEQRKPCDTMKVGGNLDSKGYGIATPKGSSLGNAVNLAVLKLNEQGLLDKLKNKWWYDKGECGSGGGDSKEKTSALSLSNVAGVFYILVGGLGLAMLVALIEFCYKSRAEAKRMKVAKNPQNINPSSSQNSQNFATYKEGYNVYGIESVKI
Sequence of UniProt P19492 (whole entry, looked up): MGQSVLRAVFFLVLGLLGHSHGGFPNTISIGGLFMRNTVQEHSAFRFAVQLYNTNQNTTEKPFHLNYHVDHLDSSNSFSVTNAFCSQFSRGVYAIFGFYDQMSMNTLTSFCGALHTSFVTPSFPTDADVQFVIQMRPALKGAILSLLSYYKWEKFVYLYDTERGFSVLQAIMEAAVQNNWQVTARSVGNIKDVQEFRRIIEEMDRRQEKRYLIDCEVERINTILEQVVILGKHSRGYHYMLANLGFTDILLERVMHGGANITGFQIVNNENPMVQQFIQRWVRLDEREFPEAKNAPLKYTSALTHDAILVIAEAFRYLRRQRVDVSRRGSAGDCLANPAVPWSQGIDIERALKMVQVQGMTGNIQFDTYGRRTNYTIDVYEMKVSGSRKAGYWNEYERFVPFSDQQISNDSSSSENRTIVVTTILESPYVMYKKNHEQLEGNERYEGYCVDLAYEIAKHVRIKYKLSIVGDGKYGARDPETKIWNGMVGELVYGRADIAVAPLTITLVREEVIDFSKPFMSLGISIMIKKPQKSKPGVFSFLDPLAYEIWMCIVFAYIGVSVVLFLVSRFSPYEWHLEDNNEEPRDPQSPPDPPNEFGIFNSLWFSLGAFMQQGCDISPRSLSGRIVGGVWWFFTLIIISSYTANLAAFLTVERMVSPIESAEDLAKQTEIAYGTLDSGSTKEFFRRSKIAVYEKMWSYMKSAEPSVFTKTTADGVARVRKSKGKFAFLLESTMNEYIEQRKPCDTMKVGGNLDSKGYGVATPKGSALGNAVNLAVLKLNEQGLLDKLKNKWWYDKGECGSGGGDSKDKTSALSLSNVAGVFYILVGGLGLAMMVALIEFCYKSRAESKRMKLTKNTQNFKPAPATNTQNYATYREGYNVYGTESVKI
HDAC7: Histone deacetylase 7 (HDAC7, Homo sapiens, UniProt Q8WUI4)
Sequence of UniProt Q8WUI4 (whole entry, looked up): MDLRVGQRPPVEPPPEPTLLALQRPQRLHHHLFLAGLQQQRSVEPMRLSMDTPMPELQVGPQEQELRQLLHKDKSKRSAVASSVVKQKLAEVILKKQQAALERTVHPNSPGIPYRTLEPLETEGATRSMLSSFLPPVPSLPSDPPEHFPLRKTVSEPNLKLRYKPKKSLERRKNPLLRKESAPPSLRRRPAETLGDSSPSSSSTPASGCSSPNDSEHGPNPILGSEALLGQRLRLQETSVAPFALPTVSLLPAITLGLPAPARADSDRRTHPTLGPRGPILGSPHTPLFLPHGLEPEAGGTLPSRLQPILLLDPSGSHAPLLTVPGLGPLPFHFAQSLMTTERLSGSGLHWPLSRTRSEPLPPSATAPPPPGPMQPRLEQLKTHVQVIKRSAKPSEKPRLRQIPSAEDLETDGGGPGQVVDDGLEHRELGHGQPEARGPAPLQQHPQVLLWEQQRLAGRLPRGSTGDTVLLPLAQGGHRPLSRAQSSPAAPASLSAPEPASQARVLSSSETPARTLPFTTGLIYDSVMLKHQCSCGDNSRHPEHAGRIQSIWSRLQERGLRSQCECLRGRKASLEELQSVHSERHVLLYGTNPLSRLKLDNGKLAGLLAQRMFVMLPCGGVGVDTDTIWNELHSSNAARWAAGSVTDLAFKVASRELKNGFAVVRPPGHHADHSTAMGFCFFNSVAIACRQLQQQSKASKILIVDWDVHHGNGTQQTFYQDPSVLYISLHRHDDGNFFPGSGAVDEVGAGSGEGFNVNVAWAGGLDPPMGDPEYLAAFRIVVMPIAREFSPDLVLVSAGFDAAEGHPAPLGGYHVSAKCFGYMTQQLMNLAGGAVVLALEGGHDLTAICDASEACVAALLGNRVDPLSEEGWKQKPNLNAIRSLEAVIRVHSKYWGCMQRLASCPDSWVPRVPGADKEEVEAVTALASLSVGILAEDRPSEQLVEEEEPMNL
Sequence of UniProt P14616 (whole entry, looked up): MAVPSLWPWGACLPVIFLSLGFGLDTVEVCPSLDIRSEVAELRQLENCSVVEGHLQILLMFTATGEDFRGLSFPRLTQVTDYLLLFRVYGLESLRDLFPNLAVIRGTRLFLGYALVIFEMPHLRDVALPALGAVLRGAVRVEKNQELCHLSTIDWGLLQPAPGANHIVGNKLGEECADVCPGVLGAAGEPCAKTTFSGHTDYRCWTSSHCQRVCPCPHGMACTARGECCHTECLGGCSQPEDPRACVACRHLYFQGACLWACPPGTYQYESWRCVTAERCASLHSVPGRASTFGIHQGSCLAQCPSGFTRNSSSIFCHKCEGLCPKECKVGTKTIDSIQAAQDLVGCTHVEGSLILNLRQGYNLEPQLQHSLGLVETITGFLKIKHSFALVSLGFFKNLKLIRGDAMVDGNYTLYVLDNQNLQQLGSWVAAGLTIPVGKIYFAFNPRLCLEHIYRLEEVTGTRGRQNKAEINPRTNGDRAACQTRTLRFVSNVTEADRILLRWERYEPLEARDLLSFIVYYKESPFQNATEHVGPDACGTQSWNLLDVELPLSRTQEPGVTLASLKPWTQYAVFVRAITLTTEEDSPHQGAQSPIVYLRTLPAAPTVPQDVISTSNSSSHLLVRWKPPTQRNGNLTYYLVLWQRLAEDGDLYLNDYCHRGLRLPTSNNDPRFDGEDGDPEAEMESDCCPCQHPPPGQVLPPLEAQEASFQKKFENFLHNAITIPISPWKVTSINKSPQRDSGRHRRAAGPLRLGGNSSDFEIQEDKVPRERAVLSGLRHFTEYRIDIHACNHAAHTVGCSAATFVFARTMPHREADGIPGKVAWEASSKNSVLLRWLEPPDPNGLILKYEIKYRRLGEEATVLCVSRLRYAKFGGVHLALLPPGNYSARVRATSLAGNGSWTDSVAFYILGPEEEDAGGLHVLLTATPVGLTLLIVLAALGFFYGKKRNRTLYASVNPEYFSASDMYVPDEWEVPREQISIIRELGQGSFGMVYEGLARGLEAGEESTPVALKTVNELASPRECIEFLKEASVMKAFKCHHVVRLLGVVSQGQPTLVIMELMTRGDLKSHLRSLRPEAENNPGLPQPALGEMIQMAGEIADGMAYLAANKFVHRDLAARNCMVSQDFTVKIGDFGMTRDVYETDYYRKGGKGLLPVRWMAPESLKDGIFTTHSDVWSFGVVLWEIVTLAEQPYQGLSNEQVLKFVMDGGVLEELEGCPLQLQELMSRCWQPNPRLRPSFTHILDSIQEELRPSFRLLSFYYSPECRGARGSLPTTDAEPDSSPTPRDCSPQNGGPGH
Sequence of UniProt P23141 (whole entry, looked up): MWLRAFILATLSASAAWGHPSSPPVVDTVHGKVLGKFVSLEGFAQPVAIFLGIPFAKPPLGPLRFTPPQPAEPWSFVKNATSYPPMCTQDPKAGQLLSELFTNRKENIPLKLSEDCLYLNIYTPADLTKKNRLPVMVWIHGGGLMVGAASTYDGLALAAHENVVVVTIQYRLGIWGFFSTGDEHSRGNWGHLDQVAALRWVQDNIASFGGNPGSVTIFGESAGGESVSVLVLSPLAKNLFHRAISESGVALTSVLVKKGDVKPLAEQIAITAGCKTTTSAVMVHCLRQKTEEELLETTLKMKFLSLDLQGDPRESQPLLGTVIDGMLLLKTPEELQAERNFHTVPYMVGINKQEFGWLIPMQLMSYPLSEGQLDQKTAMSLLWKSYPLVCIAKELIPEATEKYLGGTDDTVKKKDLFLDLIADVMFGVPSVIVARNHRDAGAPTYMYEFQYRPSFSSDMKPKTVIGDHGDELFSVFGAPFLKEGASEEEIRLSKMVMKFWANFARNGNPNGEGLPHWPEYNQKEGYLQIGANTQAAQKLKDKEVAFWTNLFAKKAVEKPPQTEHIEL

`Cc1cc(NC2CCN(C)CC2)ccc1-c1cc2c(N3CCC[C@H](C(=O)NCc4ccc(OC(F)(F)F)cc4)C3)ncnc2[nH]1` gave an IC50 of over 8 µM (MAPKAPK2; enzyme activity, inhibitor, mobility shift).
`CCN(CC)CC(=O)Nc1cccc(-n2cc(-c3ccc4ccc(-c5cn(-c6cccc(NC(=O)CN(CC)CC)c6)nn5)cc4c3)nn2)c1` gave an IC50 of over 10 µM (MAPKAPK2; enzyme activity, inhibitor).
`C=C(NC(=O)c1csc(-c2nc3c(cc2O)-c2nc(cs2)C(=O)NC(C(C)O)C(=O)NC(=C(C)OC)c2nc(cs2)C(=O)NC2c4nc(cs4)C(=O)NC(COC(=O)c4c5c6c(cccc6n4O)COC(=O)C(OC4CC(C)(O)C(N(C)C)C(C)O4)C2OC5)c2nc-3cs2)n1)C(N)=O` (stereo not shown) has a clearance of 49 mL/min/kg (Sprague-Dawley rat, both sexes, plasma; intravenous infusion, 6 mg/kg single dose).
With `O=C1Nc2ccccc2C12NC(c1ccc(F)cc1)C1(C(=O)Nc3ccccc31)N2Cc1ccc(F)cc1` (stereo not shown) the IC50 was 0.605 µM (PIK3CA (Homo sapiens, UniProt P42336); enzyme activity, inhibitor, ADP detection).
`Cc1ncsc1-c1ccc(C(C)NC(=O)C2CC(O)CN2C(=O)C(NC(=O)CCCCCCCCCCN2CCCC(Nc3ncc(Cl)c(Nc4ccccc4S(=O)(=O)C(C)C)n3)C2)C(C)(C)C)cc1` (stereo not shown): “log2 fold change” -1.35 (22Rv1; RNA-seq, refers to: ZCCHC24 mRNA; concentration not given; reference: DMSO).
`C[C@H]1[C@@H](O)O[C@@H]2O[C@@]3(C)CC[C@H]4[C@H](C)CC[C@@H]1[C@@]24OO3` has an IC50 of over 200 µM (BCL2 (Homo sapiens, UniProt P10415); binding, inhibitor, fluorescence polarization; added: labeled Bid-BH3 peptide).
The IC50 of `COC(=O)Cc1cc2c(cc1C(=O)c1ccccc1I)OCO2` is reported as 6.01 µM (Gria2/Glutamate receptor 3; ion current, patch clamp).
Under “log2 fold change”, `COC1CN([C@H]2CC[C@H]([C@@]3(C)Oc4c(Cl)cc(C(=O)NCc5c(SC)cc(C)[nH]c5=O)c(C)c4O3)CC2)C1` is recorded as 0.968 (RNA-seq, refers to: ELOVL6 mouse homolog; mouse, HT-1376 xenograft, whole blood; dose not given; reference: vehicle).
The IC50 of `O=C(O)Cc1cc2c(cc1C(=O)c1ccccc1Cl)OCO2` is reported as 4.44 µM (Gria2/Glutamate receptor 3; ion current, patch clamp).
The IC50 of `CCCCCCCCCCCCCCN(O)C(=O)CCCCC[C@@H]1NC(=O)[C@H]([C@@H](C)CC)NC(=O)[C@H](Cc2ccccc2C(F)(F)F)NC(=O)CCSCc2cccc(n2)CSCCCNC1=O` is reported as over 30 µM (HDAC7; enzyme activity, inhibitor, fluorogenic).
`Cc1oc(C)c(-c2ccc(N(CC(C)C)CC(C)C)c(NC(=O)Nc3ccc4c(c3)B(O)OC4)c2)c1C(=O)O` gave an IC50 of 27 ± 10 µM (IDO1 (Homo sapiens, UniProt P14902); enzyme activity, inhibitor, recombinant enzyme, refers to: kynurenine; 20 min, 2% DMSO, added: L-tryptophan).
The remaining binding of `Nc1ncc(-c2cc(-c3cnn(CC(F)(F)F)c3)ncc2F)nc1C(=O)NC1CNCC(F)C1` (stereo not shown) is reported as 94% (MAPKAPK5; KINOMEscan; 1 µM; reference: DMSO control).
The tissue uptake of `CCCC[C@H](NC(=O)COCCOCCNC(=O)CN1CCN(CC(=O)O)CCN(CC(=O)O)CC1)C(=O)N[C@H]1CC(=O)NCCCC[C@@H](C(N)=O)NC(=O)[C@H](Cc2c[nH]c3ccccc23)NC(=O)[C@H](CCCNC(=N)N)NC(=O)[C@@H](Cc2ccccc2)NC(=O)[C@H](Cc2c[nH]cn2)NC1=O` [technetium-99m labelled] is reported as 1.33 ± 0.15 %ID/g (C57 mouse, tumor; intravenous, 0.037 MBq, 24 h).
With `C#CCCn1nc(C)c2c(Cl)c(C(=O)NCC3CC(C)=NO3)cnc21` (stereo not shown) the IC50 was over 63 µM (MDH2 (Sus scrofa, UniProt P00346); enzyme activity, reporter counter-screen; native enzyme).
`CNS(=O)(=O)Nc1nccc(Cc2c(C)c3ccc(Oc4ncccc4F)cc3oc2=O)c1F` has an IC50 of 0.0117 µM (OV-90; cell viability; 7 days).
`O=C1CCC(N2C(=O)c3ccc(N4CC(C(=O)N5CC(CN6CCC(CNC(=O)c7cccc(-c8noc(C(F)(F)F)n8)c7)(c7nc(-c8ccccc8)cs7)CC6)C5)C4)cc3C2=O)C(=O)N1` (stereo not shown) gave an IC50 of 0.29 µM (HDAC7; enzyme activity, inhibitor).
`C=CC(=O)Nc1cccc(Cn2ncc3cnc(Nc4cnn(CCOC)c4)nc32)c1`: “percent of control” 100% (MAP3K3 human; binding, KINOMEscan; 100 nM; lower = stronger binding).
The IC50 of `C=CCc1cc(OC)c(OC(C)C(O)c2ccc(O)c(OC)c2)c(OC)c1` (stereo not shown) is reported as 7.69 µM (CES1 (Homo sapiens, UniProt P23141); enzyme activity, inhibitor).
`Cc1nn(-c2cccc(N)c2)c(=O)c2cnc(Nc3ccc(N4CCNCC4)cc3)nc12` gave an IC50 of over 10 µM (MKNK1 (Homo sapiens, UniProt Q9BUB5); enzyme activity, inhibitor).
The IC50 of `O=C(CCN(Cc1cccnc1)Cc1ccc(Cl)c(O)c1F)NO` is reported as 1.22 µM (MEP1B (Homo sapiens, UniProt Q16820); enzyme activity, inhibitor).
With `COC(=O)c1ccc(OC)c(O)c1-c1c(C(=O)OC)ccc(OC)c1O` the IC50 was over 100 µM (TLR2 (Homo sapiens, UniProt O60603); reporter gene, inhibitor, SEAP reporter; HEK-Blue hTLR2; 24 h, added: Pam3CSK4 100 ng/mL).
`CCn1nc(Cl)c2c1-c1cnc(N)c(c1)O[C@H](C)c1cc(F)ccc1-c1nn(C)cc1C2` has an IC50 of 0.655 µM (INSRR (Homo sapiens, UniProt P14616); enzyme activity, inhibitor, radiometric).

Some of these lines once more:
The IC50 of `O=C(CCN(Cc1cccnc1)Cc1ccc(Cl)c(O)c1F)NO` is reported as 1.22 µM (MEP1B (Homo sapiens, UniProt Q16820); enzyme activity, inhibitor).
The tissue uptake of `CCCC[C@H](NC(=O)COCCOCCNC(=O)CN1CCN(CC(=O)O)CCN(CC(=O)O)CC1)C(=O)N[C@H]1CC(=O)NCCCC[C@@H](C(N)=O)NC(=O)[C@H](Cc2c[nH]c3ccccc23)NC(=O)[C@H](CCCNC(=N)N)NC(=O)[C@@H](Cc2ccccc2)NC(=O)[C@H](Cc2c[nH]cn2)NC1=O` [technetium-99m labelled] is reported as 1.33 ± 0.15 %ID/g (C57 mouse, tumor; intravenous, 0.037 MBq, 24 h).
`CCn1nc(Cl)c2c1-c1cnc(N)c(c1)O[C@H](C)c1cc(F)ccc1-c1nn(C)cc1C2` has an IC50 of 0.655 µM (INSRR (Homo sapiens, UniProt P14616); enzyme activity, inhibitor, radiometric).
